# Measurements pooled from the literature.
# A part holds a random share of what one study measured.
# Chain of UniProt Q9H4A3 (whole entry, looked up): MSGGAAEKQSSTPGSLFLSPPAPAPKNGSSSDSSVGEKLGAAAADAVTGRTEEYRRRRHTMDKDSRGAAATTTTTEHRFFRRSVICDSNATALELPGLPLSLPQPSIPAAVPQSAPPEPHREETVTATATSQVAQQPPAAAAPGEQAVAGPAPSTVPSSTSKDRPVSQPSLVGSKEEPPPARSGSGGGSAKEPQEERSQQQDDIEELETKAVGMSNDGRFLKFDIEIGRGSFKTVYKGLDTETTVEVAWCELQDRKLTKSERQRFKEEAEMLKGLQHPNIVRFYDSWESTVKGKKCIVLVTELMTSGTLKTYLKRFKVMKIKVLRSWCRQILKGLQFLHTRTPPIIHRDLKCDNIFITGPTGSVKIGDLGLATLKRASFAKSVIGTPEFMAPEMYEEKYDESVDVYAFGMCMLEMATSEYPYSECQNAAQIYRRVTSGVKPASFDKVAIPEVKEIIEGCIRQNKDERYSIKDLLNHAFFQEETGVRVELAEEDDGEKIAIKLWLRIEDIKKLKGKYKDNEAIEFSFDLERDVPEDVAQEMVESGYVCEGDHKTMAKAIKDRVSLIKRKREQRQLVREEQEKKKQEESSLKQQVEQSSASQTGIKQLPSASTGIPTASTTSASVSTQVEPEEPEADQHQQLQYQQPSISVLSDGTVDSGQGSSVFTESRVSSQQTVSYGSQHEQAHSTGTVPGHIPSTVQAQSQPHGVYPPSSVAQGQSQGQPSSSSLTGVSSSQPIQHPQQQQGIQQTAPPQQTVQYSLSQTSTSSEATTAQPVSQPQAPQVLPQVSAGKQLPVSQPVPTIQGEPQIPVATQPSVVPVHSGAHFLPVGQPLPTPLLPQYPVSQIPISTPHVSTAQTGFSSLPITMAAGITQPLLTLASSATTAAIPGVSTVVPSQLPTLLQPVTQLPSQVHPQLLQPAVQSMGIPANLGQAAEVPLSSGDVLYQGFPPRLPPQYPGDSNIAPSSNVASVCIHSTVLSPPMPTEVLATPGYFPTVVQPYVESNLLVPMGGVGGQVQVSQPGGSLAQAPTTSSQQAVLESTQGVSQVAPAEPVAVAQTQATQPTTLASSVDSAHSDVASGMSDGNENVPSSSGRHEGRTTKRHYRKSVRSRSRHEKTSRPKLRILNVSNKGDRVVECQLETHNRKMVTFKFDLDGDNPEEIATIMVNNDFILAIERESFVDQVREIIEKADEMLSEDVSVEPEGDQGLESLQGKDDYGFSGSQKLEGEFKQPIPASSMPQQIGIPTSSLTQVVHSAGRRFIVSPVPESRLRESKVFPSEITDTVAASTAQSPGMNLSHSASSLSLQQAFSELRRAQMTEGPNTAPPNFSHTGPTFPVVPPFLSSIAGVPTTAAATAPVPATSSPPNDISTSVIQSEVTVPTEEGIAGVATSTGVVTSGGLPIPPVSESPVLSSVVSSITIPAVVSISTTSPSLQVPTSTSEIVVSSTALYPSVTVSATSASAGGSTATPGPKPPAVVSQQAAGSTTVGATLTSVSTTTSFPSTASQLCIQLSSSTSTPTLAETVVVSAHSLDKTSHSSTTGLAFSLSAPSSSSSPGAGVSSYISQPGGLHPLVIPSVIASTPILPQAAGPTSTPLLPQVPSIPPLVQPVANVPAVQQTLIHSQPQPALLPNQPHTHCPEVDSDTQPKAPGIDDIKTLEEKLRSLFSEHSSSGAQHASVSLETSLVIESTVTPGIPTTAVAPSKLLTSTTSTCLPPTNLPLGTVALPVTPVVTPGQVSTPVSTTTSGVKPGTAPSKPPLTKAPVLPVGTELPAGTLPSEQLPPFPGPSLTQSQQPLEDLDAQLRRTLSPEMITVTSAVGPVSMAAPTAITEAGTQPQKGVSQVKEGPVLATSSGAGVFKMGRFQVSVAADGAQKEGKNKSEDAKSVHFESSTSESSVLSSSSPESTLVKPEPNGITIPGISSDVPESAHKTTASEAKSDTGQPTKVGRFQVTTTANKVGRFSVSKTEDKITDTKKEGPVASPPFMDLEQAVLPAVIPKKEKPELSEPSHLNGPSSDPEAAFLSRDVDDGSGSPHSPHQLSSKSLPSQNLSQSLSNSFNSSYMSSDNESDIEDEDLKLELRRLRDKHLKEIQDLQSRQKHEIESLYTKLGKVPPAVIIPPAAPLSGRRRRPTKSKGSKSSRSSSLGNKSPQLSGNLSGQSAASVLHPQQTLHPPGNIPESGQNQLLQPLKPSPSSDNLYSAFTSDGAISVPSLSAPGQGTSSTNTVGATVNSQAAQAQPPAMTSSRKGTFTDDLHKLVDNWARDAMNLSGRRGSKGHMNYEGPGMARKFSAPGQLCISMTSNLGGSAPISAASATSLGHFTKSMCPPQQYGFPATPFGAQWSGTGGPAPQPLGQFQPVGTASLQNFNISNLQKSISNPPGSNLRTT
# Chain of UniProt Q15139 (whole entry, looked up): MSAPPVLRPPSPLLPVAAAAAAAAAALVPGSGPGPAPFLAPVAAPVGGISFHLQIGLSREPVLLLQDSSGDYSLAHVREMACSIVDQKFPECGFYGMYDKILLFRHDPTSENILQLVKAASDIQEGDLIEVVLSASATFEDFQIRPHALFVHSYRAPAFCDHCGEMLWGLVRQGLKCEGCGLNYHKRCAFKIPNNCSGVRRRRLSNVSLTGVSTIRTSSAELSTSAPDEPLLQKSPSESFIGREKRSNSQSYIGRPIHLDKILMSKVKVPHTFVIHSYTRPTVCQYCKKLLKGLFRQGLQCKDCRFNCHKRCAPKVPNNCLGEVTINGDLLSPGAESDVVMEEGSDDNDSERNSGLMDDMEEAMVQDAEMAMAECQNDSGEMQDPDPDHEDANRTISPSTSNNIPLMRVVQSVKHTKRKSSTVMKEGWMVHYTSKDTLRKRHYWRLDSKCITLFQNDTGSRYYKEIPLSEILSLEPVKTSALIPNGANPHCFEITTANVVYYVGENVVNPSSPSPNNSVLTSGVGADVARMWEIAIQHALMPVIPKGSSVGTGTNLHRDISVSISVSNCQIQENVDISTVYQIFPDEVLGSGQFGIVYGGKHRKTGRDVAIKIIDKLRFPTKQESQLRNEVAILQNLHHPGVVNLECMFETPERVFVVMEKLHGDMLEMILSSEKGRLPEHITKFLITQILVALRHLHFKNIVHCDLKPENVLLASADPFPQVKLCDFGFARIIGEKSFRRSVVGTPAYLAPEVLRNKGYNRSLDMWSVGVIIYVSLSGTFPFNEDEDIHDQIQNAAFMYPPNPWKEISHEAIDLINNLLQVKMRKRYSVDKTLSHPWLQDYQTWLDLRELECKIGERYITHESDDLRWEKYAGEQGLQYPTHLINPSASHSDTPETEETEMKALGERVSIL
# Chain of UniProt O15075 (whole entry, looked up): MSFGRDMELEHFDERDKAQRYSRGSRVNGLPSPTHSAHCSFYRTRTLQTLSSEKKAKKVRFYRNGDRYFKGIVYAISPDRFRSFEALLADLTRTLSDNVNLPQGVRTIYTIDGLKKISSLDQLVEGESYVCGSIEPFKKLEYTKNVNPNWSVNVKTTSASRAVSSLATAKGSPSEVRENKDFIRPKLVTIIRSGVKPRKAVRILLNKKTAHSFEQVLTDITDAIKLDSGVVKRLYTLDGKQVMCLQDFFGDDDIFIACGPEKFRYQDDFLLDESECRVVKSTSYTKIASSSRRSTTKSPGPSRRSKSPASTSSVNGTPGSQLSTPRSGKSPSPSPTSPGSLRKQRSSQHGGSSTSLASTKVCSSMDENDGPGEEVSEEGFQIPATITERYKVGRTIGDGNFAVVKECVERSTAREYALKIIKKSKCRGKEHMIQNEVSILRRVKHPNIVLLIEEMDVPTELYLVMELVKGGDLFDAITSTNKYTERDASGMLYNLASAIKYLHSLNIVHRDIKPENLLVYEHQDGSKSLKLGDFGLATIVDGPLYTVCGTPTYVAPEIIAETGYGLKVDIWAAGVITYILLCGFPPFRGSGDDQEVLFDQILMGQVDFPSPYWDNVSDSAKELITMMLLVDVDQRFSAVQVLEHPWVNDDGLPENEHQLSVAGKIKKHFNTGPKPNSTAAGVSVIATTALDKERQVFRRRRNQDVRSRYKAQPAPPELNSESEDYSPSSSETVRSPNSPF

# Study 1
# Structure (SMILES): CN1CCN(C(=O)c2ccc(NC(=O)Nc3ccc(N(C)c4ccnc(Nc5ccc(CS(C)(=O)=O)cc5)n4)cc3)cc2)CC1
# Tested at: 1 µM
target,technique,measured,setting,baseline,remaining binding
"Ribosomal protein S6 kinase alpha-4 (RPS6KA4, Homo sapiens, UniProt O75676)",competitive binding scan,,C-terminal kinase domain 2,,74%
"Serine/threonine-protein kinase Nek7 (NEK7, Homo sapiens, UniProt Q8TDX7)",competitive binding panel,,,vehicle,93%
"Activated CDC42 kinase 1 (TNK2, Homo sapiens, UniProt Q07912)",competitive binding panel,,,vehicle,6.5%
"Eukaryotic translation initiation factor 2-alpha kinase 1 (EIF2AK1, Homo sapiens, UniProt Q9BQI3)",competitive binding panel,,,vehicle,100%
"Tyrosine-protein kinase receptor UFO (AXL, Homo sapiens, UniProt P30530)",competitive binding panel,,,vehicle,9.7%
"Serine/threonine-protein kinase D1 (PRKD1, Homo sapiens, UniProt Q15139)",competitive binding panel,,,vehicle,100%
"Serine/threonine-protein kinase PLK4 (PLK4, Homo sapiens, UniProt O00444)",competitive binding panel,,,vehicle,2.7%
"Beta-adrenergic receptor kinase 1 (GRK2, Homo sapiens, UniProt P25098)",competitive binding panel,,,vehicle,100%
"Serine/threonine-protein kinase WNK1 (WNK1, Homo sapiens, UniProt Q9H4A3)",competitive binding panel,,,vehicle,94%
"Dual specificity protein kinase TTK (TTK, Homo sapiens, UniProt P33981)",competitive binding panel,,,vehicle,61%
"Mitogen-activated protein kinase kinase kinase 1 (MAP3K1, Homo sapiens, UniProt Q13233)",competitive binding panel,,,vehicle,83%
"Serine/threonine-protein kinase 35 (STK35, Homo sapiens, UniProt Q8TDR2)",competitive binding panel,,,vehicle,71%
"Dual specificity mitogen-activated protein kinase kinase 2 (MAP2K2, Homo sapiens, UniProt P36507)",competitive binding panel,MEK2,,vehicle,40%
"TGF-beta receptor type-2 (TGFBR2, Homo sapiens, UniProt P37173)",competitive binding panel,,,vehicle,26%

# Study 2
# Structure (SMILES): O=C(Nc1cccnn1)N1CC(C/C=C/c2cncc(Oc3ccc(C(F)(F)F)cn3)n2)C1
# Tested at: 1 µM
target,read-out,technique,remaining binding [%]
"TGF-beta receptor type-1 (TGFBR1, Homo sapiens, UniProt P36897)",cell-free assay,competition with immobilised ligand,100
"Transient receptor potential cation channel subfamily M member 6 (TRPM6, Homo sapiens, UniProt Q9BX84)",cell-free assay,competition with immobilised ligand,73
"Dual specificity testis-specific protein kinase 1 (TESK1, Homo sapiens, UniProt Q15569)",cell-free assay,competition with immobilised ligand,100
"Ribosomal protein S6 kinase alpha-6, N-terminal kinase domain (RPS6KA6, Homo sapiens, UniProt Q9UK32)",cell-free assay,competition with immobilised ligand,80
"Serine/threonine-protein kinase DCLK1 (DCLK1, Homo sapiens, UniProt O15075)",cell-free assay,competition with immobilised ligand,84
"Leucine-rich repeat serine/threonine-protein kinase 2 (LRRK2, Homo sapiens, UniProt Q5S007)",cell-free assay,competition with immobilised ligand,90
"Tyrosine-protein kinase ZAP-70 (ZAP70, Homo sapiens, UniProt P43403)",cell-free assay,competition with immobilised ligand,90
"Serine/threonine-protein kinase MRCK gamma (CDC42BPG, Homo sapiens, UniProt Q6DT37)",,competition binding,100
"Mitogen-activated protein kinase kinase kinase 12 (MAP3K12, Homo sapiens, UniProt Q12852)",cell-free assay,competition with immobilised ligand,83
"Serine/threonine-protein kinase RIO1 (RIOK1, Homo sapiens, UniProt Q9BRS2)",cell-free assay,competition with immobilised ligand,100
"Insulin receptor (INSR, Homo sapiens, UniProt P06213)",cell-free assay,competition with immobilised ligand,100
"Phosphatidylinositol 3-kinase C2 domain-containing subunit gamma (PIK3C2G, Homo sapiens, UniProt O75747)",cell-free assay,competition with immobilised ligand,100
"Mitogen-activated protein kinase 8 (MAPK8, Homo sapiens, UniProt P45983)",cell-free assay,competition with immobilised ligand,75
"Rhodopsin kinase GRK1 (GRK1, Homo sapiens, UniProt Q15835)",cell-free assay,competition with immobilised ligand,82
"Atypical kinase COQ8A, mitochondrial (COQ8A, Homo sapiens, UniProt Q8NI60)",cell-free assay,competition with immobilised ligand,96
"Serine/threonine-protein kinase WNK1 (WNK1, Homo sapiens, UniProt Q9H4A3)",cell-free assay,competition with immobilised ligand,100
"Tyrosine-protein kinase ABL1, phosphorylated (ABL1, Homo sapiens, UniProt P00519, H396P)",cell-free assay,competition with immobilised ligand,76
"Tyrosine-protein kinase ABL1, phosphorylated (ABL1, Homo sapiens, UniProt P00519, E255K)",cell-free assay,competition with immobilised ligand,81
"Serine/threonine-protein kinase ULK2 (ULK2, Homo sapiens, UniProt Q8IYT8)",cell-free assay,competition with immobilised ligand,73
"Mitogen-activated protein kinase 1 (MAPK1, Homo sapiens, UniProt P28482)",cell-free assay,competition with immobilised ligand,100

# Study 3
# Target: Ribosomal protein S6 kinase beta-1 (RPS6KB1, Homo sapiens, UniProt P23443)
# Chain of UniProt P23443 (whole entry, looked up): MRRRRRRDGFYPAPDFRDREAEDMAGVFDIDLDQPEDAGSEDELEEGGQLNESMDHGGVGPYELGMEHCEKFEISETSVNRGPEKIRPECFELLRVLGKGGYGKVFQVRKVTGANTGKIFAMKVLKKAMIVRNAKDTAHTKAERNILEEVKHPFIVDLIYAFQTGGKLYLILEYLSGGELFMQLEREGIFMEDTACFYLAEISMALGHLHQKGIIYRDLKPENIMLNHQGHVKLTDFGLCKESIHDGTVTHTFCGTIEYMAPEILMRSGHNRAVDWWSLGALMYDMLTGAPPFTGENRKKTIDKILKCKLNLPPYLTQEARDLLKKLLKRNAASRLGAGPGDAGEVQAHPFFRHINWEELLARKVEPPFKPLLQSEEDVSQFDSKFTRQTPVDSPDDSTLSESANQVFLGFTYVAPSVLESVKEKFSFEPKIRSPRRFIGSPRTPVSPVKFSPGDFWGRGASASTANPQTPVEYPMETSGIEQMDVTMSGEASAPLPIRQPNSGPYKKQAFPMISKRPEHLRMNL
# Read-out: enzyme activity
# Action: inhibitor
# Tested at: 0.5 µM
# Baseline: control
Structure (SMILES),remaining activity [%]
CC(C)n1cnc2c(Nc3cccc(Cl)c3)nc(NCCO)nc21,93.3
NC(=O)c1cccc(-c2cc(Nc3ccc(OC(F)(F)F)cc3)ncn2)c1,109
N#CC(c1ccnc(NCCc2cccnc2)n1)c1nc2ccccc2s1 (centres unmarked),98.2
FC(F)(F)c1ccc(/C=C/c2nc(COc3ccc(CCCCn4ccnn4)cc3)co2)cc1,105
CCCCc1c(-c2ccc(O)cc2)[nH]c2nccnc12,105
CC(C)N(CCC(=O)c1ccc2ccccc2c1)Cc1ccccc1,97.2
C[C@@H](N)[C@H]1CC[C@H](C(=O)Nc2ccncc2)CC1,92.4
O=C1NC(=O)/C(=C/c2ccc3c(c2)OC(F)(F)O3)S1,85.1
CNc1cc2c(Nc3cccc(Br)c3)ncnc2cn1,97.4
O=Nc1c(-c2c(O)[nH]c3ccccc23)[nH]c2ccccc12,75.9
Clc1ccc(Nc2nnc(Cc3ccncc3)c3ccccc23)cc1,102
NC(=O)c1ccc(-c2nc(-c3ccc4c(c3)OCCO4)c(-c3ccccn3)[nH]2)cc1,101
c1cc(-c2cnn3cc(-c4ccc(OCCN5CCCCC5)cc4)cnc23)ccn1,82.2
COc1cc2c(N3CCN(C(=O)Nc4ccc(OC(C)C)cc4)CC3)ncnc2cc1OCCCN1CCCCC1,107
N#C/C(=C(/N)SC1C=CC=CC1)c1cccc(C(O)c2ccncc2)c1 (centres unmarked),102
Nc1nc(Nc2ccc(S(N)(=O)=O)cc2)nn1C(=S)Nc1c(F)cccc1F,30
CC(C)(C)c1nc2c3cc[nH]c(=O)c3c3cc(F)ccc3c2[nH]1,74.1
CCN(CC)CCCCN1c2ccccc2Oc2ccc(Cl)cc21,97.7
O=C(O)/C=C/c1cc(Br)c(Br)c(Br)c1Br,91.4
O=C(c1ccccc1)c1ccc(N2CCOCC2)cc1O,95.3

# Study 4
# Target: Calcium/calmodulin-dependent protein kinase type II subunit alpha (CAMK2A, Homo sapiens, UniProt Q9UQM7)
# Chain of UniProt Q9UQM7 (whole entry, looked up): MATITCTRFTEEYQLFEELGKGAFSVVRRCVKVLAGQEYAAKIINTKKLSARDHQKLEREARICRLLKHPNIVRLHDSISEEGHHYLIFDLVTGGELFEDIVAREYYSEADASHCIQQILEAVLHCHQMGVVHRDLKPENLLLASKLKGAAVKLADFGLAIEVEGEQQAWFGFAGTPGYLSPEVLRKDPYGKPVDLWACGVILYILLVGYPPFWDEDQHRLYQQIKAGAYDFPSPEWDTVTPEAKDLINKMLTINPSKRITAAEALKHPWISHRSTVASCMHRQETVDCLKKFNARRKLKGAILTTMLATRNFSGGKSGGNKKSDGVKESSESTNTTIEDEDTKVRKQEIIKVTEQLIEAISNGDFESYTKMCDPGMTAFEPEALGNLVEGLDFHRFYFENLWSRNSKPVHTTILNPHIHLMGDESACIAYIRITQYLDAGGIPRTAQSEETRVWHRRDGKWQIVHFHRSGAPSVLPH
# Read-out: enzyme activity
# Action: inhibitor
# Tested at: 10 µM
SMILES,inhibition
CC(C)(C)[C@@H]1NC(=O)O[C@@H]2CCC[C@H]2OC/C=C/C(F)(F)c2nc3ccccc3nc2O[C@@H]2C[C@@H](C(=O)N[C@]3(C(=O)NS(=O)(=O)C4(C)CC4)C[C@H]3C(F)F)N(C2)C1=O,-9%
CC1=CCC(C(C)C)=CC1,-6%
COc1c2c(cc3oc(CO[C@@H]4O[C@H](CO)[C@@H](O)[C@H](O)[C@H]4O)cc(=O)c13)O[C@H](C(C)(C)O)C2,16%
C=C(C)[C@@H]1CC=C(C)CC1,-2%
CC(C)CCCC(C)CCCC(C)CCCCC(C)CCCC(C)CCCC(C)C (centres unmarked),-8%
O=[N+]([O-])c1cn2c(n1)OC[C@@H](OCc1ccc(OC(F)(F)F)cc1)C2,-4%
CC(=O)O[C@@H]1CC[C@@]2(C)[C@@H](CC[C@]3(C)[C@@H]2CC=C2[C@@H]4[C@@H](C)[C@H](C)CC[C@]4(C)CC[C@]23C)[C@@]1(C)C(=O)O,13%
OC[C@H]1O[C@@](CO)(OC[C@@]2(O[C@H]3O[C@H](CO)[C@@H](O)[C@H](O)[C@H]3O)O[C@H](CO)[C@@H](O)[C@@H]2O)[C@@H](O)[C@@H]1O,-20%
O=C(O)Cc1ccc(O)cc1,-10%
CCN(CC)CCn1c(=O)c(Cc2ccc(OC)cc2)nc2ccccc21,5%
CC1(C)CC[C@]2(C(=O)O)CC[C@]3(C)C(=CC[C@@H]4[C@@]5(C)CC[C@H](O[C@@H]6OC[C@H](O)[C@H](O)[C@H]6O[C@@H]6O[C@H](CO)[C@@H](O)[C@H](O)[C@H]6O)[C@@](C)(CO)[C@@H]5CC[C@]43C)[C@@H]2C1,16%
